Results pooled from the literature.
Lines come from different studies, so protocols differ.
EGFR: Epidermal growth factor receptor (EGFR, Homo sapiens, UniProt P00533)

SMILES	target	test	system	setting	how to read	quantity	value
Cc1ccc(S(=O)(=O)c2c(-c3ccccc3)c3c(C)c4cc(F)ccc4n3c3ccccc23)cc1	EGFR	enzyme activity, inhibitor, ADP detection	–	1 µM	–	inhibition	> 50%
CC(=O)N[C@@H](Cc1c[nH]c2ccccc12)C(=O)N[C@@H](Cc1c[nH]c2ccccc12)C(=O)N[C@@H](Cc1c[nH]c2ccccc12)C(=O)N[C@@H](Cc1c[nH]c2ccccc12)C(=O)N[C@@H](Cc1c[nH]c2ccccc12)C(=O)N[C@@H](Cc1c[nH]c2ccccc12)C(=O)N[C@@H](Cc1c[nH]c2ccccc12)C(=O)NCCCC[C@@H]1NC(=O)[C@H](CCCNC(=N)N)NC(=O)[C@H](CCCNC(=N)N)NC(=O)[C@H](CCCNC(=N)N)NC(=O)[C@H](CCCNC(=N)N)NC(=O)[C@H](CCCNC(=N)N)NC1=O	EGFR	kinase activity, Reaction Biology radiometric	–	concentration not given, together with: ATP 200 µM	baseline: DMSO	remaining activity	119%
O=C(c1ccc2ccccc2c1)c1cn(-c2ccccc2)nc1C1=Nn2c(Cc3nnc4n3N=C(c3nn(-c5ccccc5)cc3C(=O)c3ccc5ccccc5c3)CS4)nnc2SC1	EGFR	enzyme activity, inhibitor, ADP detection	–	10 µM	–	inhibition	97.2%
Nc1ncnc2c1sc1sc3c(N)ncnc3c12	EGFR (Homo sapiens, UniProt P00533, T790M)	kinase activity	–	–	baseline: gefitinib IC50 over compound IC50	relative potency	4.27
N=C(N)NCCC[C@@H]1NC(=O)[C@H](Cc2c[nH]c3ccccc23)NC(=O)[C@H](CCCNC(=N)N)NC(=O)[C@H](Cc2c[nH]c3ccccc23)NC(=O)[C@H](CCCNC(=N)N)NC(=O)[C@H](Cc2c[nH]c3ccccc23)NC(=O)[C@H](CCCNC(=N)N)NC(=O)[C@H](Cc2c[nH]c3ccccc23)NC(=O)[C@H](CCCNC(=N)N)NC(=O)[C@H](Cc2c[nH]c3ccccc23)NC(=O)[C@H](CCCNC(=N)N)NC(=O)[C@H](Cc2c[nH]c3ccccc23)NC(=O)[C@H](CCCNC(=N)N)NC(=O)[C@H](Cc2c[nH]c3ccccc23)NC(=O)[C@H](CCCNC(=N)N)NC(=O)[C@H](Cc2c[nH]c3ccccc23)NC(=O)[C@H](CCCNC(=N)N)NC(=O)[C@H](Cc2c[nH]c3ccccc23)NC1=O	EGFR	kinase activity, Reaction Biology radiometric	–	concentration not given, together with: ATP 200 µM	baseline: DMSO	remaining activity	72.6%
CC(C)[C@H](NC(=O)[C@H](CCC(=O)O)NC(=O)[C@H](CCC(=O)O)NC(=O)[C@H](Cc1ccc(O)cc1)NC(=O)[C@H](CCC(=O)O)NC(=O)[C@H](CC(=O)O)NC(=O)[C@H](CC(=O)O)NC(=O)[C@H](CCC(=O)O)NC(=O)[C@@H](CCCNC(=N)N)NC(=O)[C@@H](CCCNC(=N)N)NC(=O)[C@@H](CCCNC(=N)N)NC(=O)[C@H](C)N(C)C(=O)[C@H](Cc1ccccc1)NC(=O)[C@@H](NC(=O)[C@H](Cc1ccccc1)NC(=O)[C@H](C)NC(=O)[C@H](CCCNC(=N)N)N(C)C(=O)[C@@H]1CCCN1C(=O)[C@H](CCCNC(=N)N)NC(=O)CNC(=O)c1ccc2c(c1)C1(OC2=O)c2ccc(O)cc2Oc2cc(O)ccc21)[C@@H](C)O)C(N)=O	EGFR	enzyme activity, substrate	–	–	–	Km	82 µM
CC(C)C[C@@H]1NC(=O)C[C@H](c2ccccc2)NC(=O)[C@H](CC(N)=O)NC(=O)C[C@H](C)NC(=O)[C@H](Cc2ccc(O)cc2)NC(=O)CSC[C@@H](C(=O)NCC(N)=O)NC(=O)[C@H](CO)NC(=O)[C@@H]2CCCN2C(=O)C[C@H](c2ccccc2)NC(=O)[C@H](CC(C)C)NC(=O)[C@H](Cc2ccccc2)NC(=O)C[C@H](c2ccccc2)NC(=O)[C@H](CC(=O)O)NC(=O)[C@H](CC(N)=O)NC(=O)[C@H](Cc2ccccc2)NC1=O	Epidermal growth factor receptor, with EGF (EGFR, Homo sapiens, UniProt P00533)	inhibitor, AlphaLISA	–	concentration not given	–	protein interaction inhibition	inactive
COc1cc(C(=O)NC2CCC(N3CCN(CC4CCC5(CCCC5)C4)CC3)CC2)c(F)cc1Nc1ncc2c(n1)N(C1CCCC1(F)F)CC(F)(F)C(=O)N2C (stereo not shown)	EGFR	cell-free assay, TR-FRET	–	10 µM	–	inhibition	0.49%
Cc1ccnc(-c2cc(C(=O)NCCCCn3cc(CN(CC(N)=O)C(=O)CN(CCCCN)C(=O)CN(CCCCN)C(=O)CN(CC(C)C)C(=O)CN(CCCCN)C(=O)CN(Cc4ccc5c(c4)OCO5)C(=O)CN(C(=O)CN(CCCCN)C(=O)CN(CC(C)C)C(=O)CNCCCCN)C(C)c4ccccc4)nn3)ccn2)c1 (stereo not shown)	EGFR	–	NCI-H441	irradiated 10 min, together with: EGF	–	autophosphorylation	no effect
CN1CCN(c2ccc(Nc3ncc(Cl)c(Nc4ccccc4P(C)(C)=O)n3)cc2Br)CC1	EGFR (Homo sapiens, UniProt P00533, C797S/del746-750/T790M)	western blot	nude mice, PC9-OR xenograft, tumour	dose not given	–	phosphorylation	inhibited
CC(C)[C@H](NC(=O)[C@H](CCC(=O)O)NC(=O)[C@H](CCC(=O)O)NC(=O)[C@H](Cc1ccc(O)cc1)NC(=O)[C@H](CCC(=O)O)NC(=O)[C@H](CC(=O)O)NC(=O)[C@H](CC(=O)O)NC(=O)[C@H](CCC(=O)O)NC(=O)CCCCCNC(=O)[C@H](C)N(C)C(=O)[C@H](Cc1ccccc1)NC(=O)[C@@H](NC(=O)[C@H](Cc1ccccc1)NC(=O)[C@H](C)NC(=O)[C@H](CCCNC(=N)N)N(C)C(=O)[C@@H]1CCCN1C(=O)[C@H](CCCNC(=N)N)NC(=O)CNC(=O)c1ccc2c(c1)C1(OC2=O)c2ccc(O)cc2Oc2cc(O)ccc21)[C@@H](C)O)C(N)=O	EGFR	enzyme activity, substrate	–	–	–	Km	812 µM
C=CC(=O)Nc1cc(Nc2nccc(-n3ccc4nc(OC)ccc43)n2)c(OC)cc1N(C)CCN(C)C	EGFR (Homo sapiens, UniProt P00533, L858R/T790M)	KINOMEscan	–	–	baseline: Kd wild-type over Kd mutant	selectivity ratio	~90
Cc1ccc(S(=O)(=O)c2c(-c3ccccc3)c3c(C)c4ccc(C)cc4n3c3ccccc23)cc1	EGFR	enzyme activity, inhibitor, ADP detection	–	1 µM	–	inhibition	> 50%
